# Experimental data gathered from unrelated publications.
# “And” joins repeats or separate records; there may be more than shown. ± marks the error that the study gave.
# CNR2: Cannabinoid receptor 2 (CNR2, Homo sapiens, UniProt P34972)
# Chain of UniProt P34972 (whole entry, looked up): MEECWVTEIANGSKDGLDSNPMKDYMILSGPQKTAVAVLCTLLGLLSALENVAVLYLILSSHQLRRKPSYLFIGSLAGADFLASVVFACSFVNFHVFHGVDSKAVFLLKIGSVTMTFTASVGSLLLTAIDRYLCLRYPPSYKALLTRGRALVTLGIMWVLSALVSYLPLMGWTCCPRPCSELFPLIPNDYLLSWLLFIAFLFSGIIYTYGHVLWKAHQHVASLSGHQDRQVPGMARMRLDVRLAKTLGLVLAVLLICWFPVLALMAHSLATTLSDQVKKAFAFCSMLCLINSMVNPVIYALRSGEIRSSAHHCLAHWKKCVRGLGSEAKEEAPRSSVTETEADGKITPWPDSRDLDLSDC
# Genome polyprotein NS2B-NS3 protease: Genome polyprotein, NS2B-NS3 protease (dengue virus type 2, UniProt P29990)
# Chain of UniProt Q9SZU7 (whole entry, unmodified, looked up): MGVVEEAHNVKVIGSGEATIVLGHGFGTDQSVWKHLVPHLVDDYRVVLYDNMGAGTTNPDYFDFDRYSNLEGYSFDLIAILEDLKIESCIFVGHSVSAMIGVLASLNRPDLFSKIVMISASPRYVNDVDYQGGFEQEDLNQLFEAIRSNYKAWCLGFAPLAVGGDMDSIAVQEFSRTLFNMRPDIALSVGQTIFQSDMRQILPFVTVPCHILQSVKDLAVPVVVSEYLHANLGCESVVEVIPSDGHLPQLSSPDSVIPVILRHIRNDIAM
# Chain of UniProt Q9BQB6 (whole entry, looked up): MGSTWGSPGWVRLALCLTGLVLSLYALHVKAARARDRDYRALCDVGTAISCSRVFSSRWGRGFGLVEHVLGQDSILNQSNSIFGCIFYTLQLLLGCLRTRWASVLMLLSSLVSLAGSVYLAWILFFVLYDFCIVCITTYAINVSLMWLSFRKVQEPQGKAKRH
# Chain of UniProt P54764 (whole entry, looked up): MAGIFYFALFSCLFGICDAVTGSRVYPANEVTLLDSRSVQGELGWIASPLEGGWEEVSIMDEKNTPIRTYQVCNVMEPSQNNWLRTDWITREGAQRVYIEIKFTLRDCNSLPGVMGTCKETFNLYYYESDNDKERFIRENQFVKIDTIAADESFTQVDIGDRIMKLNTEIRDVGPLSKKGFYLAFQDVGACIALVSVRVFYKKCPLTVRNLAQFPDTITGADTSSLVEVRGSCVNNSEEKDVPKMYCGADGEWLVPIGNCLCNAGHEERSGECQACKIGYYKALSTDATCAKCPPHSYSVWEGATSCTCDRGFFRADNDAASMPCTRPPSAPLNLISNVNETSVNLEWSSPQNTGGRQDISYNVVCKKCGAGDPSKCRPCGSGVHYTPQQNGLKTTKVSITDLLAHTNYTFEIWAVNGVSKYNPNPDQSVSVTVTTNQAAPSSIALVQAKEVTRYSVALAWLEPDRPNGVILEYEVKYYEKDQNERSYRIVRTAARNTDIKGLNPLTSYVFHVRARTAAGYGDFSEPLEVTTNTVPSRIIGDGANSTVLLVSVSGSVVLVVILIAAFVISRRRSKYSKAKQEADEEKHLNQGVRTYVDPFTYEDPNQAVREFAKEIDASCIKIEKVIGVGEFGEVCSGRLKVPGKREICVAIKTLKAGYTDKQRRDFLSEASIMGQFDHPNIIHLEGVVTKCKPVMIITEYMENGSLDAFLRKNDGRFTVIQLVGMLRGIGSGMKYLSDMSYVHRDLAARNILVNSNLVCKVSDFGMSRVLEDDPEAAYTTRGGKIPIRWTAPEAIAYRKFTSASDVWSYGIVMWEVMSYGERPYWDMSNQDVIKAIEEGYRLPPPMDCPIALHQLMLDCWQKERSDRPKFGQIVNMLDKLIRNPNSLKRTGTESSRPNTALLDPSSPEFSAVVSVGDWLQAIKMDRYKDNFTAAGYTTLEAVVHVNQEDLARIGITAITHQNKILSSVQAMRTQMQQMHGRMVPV
# Chain of UniProt P35821 (whole entry, looked up): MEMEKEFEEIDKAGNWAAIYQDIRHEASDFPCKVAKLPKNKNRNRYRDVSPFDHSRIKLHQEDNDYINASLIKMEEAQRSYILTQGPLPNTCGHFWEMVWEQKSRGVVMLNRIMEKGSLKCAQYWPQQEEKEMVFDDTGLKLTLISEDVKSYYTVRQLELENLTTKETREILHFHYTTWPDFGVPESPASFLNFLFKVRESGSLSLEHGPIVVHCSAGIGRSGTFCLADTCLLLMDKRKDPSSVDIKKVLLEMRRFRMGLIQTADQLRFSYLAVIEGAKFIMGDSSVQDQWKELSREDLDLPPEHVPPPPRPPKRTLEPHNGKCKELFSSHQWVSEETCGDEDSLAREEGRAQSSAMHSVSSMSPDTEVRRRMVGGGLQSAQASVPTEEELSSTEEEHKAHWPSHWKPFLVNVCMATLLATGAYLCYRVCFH
# Chain of UniProt P46089 (whole entry, unmodified, looked up): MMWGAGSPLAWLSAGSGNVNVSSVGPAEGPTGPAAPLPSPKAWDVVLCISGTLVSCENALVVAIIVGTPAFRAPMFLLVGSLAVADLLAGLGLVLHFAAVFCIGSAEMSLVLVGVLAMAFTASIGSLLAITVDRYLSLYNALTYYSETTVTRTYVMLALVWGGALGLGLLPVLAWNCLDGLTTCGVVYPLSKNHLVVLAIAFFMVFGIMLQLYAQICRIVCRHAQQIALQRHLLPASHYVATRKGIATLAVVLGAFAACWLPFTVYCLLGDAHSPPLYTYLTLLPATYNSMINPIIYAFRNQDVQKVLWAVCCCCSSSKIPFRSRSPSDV
Compound,target,test,system,conditions,measurement,value
CCOC(=O)C(CC)(CCCSCCOCCOCCOCCNc1ccc([N+](=O)[O-])c2nonc12)NC(=O)c1ccc(C2CC2)c(Cc2ccc(F)cc2)n1 (stereo not shown),CNR2,"cAMP, agonist",,,EC50,0.0092 µM
NC(=O)c1cccc(NC(=O)c2cc(-c3ccccc3)nn2-c2ccccc2)c1,Genome polyprotein NS2B-NS3 protease,reporter gene,HeLa,,EC50,14 µM
Cn1c(=O)n(C2CCC(=O)NC2=O)c2ccc(C3CCN(CC(=O)Nc4cccc(CS(=O)(=O)N5CC[C@H](Nc6cccc(-c7sc(C(=O)O)c(OCC(=O)O)c7Cl)c6)CC5(C)C)c4)CC3)cc21 (stereo partly shown),"Tyrosine-protein phosphatase non-receptor type 1 (Mus musculus, UniProt P35821)","degrader, Western blot",B16-F10,24 h,DC50,11 nM
CN1CCN(c2ccc(NC(=O)c3cc(-c4ccccc4)n(-c4ccccc4)n3)cc2)CC1,Genome polyprotein NS2B-NS3 protease,reporter gene,HeLa,,EC50,> 38 µM
Cc1nn(-c2cccc(N)c2)c(=O)c2cnc(Nc3ccc(N4CCNCC4)cc3)nc12,"EPHA4 (Homo sapiens, UniProt P54764)","enzyme activity, inhibitor",,,IC50,1.58 µM
O=C(O)c1cc(-c2ccccc2)n(-c2ccccc2)n1,Genome polyprotein NS2B-NS3 protease,reporter gene,HeLa,,EC50,37 µM
CC(C)Oc1cc(Cl)ccc1CNc1cc(-c2ccccc2)nc2ncnn12,"GPR3 (Homo sapiens, UniProt P46089, Q215A/Y135A)","cAMP level, cAMP GloSensor",,,EC50,0.793 µM
O=C(O)C(Cc1c[nH]cn1)N1C(=O)c2ccc3c4ccc5c6c(ccc(c7ccc(c2c37)C1=O)c64)C(=O)N(C(Cc1c[nH]cn1)C(=O)O)C5=O (stereo not shown),hTERT promoter G-quadruplex DNA,"binding, thiazole orange displacement",,pH 7,DC50,> 2500 nM
O=C(Nc1cccc(N2CCOCC2)c1)c1cc(-c2ccccc2)n(-c2ccccc2)n1,Genome polyprotein NS2B-NS3 protease,reporter gene,HeLa,,EC50,13 µM
CCOC(=O)C(CC)(CCCOC)NC(=O)c1ccc(C2CC2)c(Cc2ccc(F)cc2)n1 (stereo not shown),CNR2,"ligand displacement, radioligand",,cell membranes,Ki,1.5 nM
C=CC(=O)N1CC2(CCN(c3nc(OC4CCN(CCCOC)CC4)nc4c(OCC(F)(F)F)c(-c5c(C)ccc6[nH]ncc56)c(C5CC5)cc34)CC2)C1,"GTPase KRas, GDP-bound (KRAS, Homo sapiens, UniProt P01116, A146T)","binding, surface plasmon resonance",,,Kd,1.1 ± 0.12 µM
CC(C)(C)n1cc(CN(Cc2cn(CCOCCOCCOCCOCCOCCO)nn2)Cc2cn(C(C)(C)C)nn2)nn1,Cu(I),"binding, bicinchoninic acid competition",,"8000 µM, together with: bicinchoninic acid 40 µM",Kd,0.000276 µM
O=C(c1cc(-c2ccccc2)n(-c2ccccc2)n1)N(Cc1ccccn1)CC1CCCO1 (stereo not shown),Genome polyprotein NS2B-NS3 protease,reporter gene,HeLa,,EC50,16 µM
CCOC(=O)C(CC)(CCCSCCOCCOCCOCCOCCN)NC(=O)c1ccc(C2CC2)c(Cc2ccc(F)cc2)n1 (stereo not shown),CNR2,"ligand displacement, radioligand",,cell membranes,Ki,2.6 nM
NC(=O)c1cc(-c2ccc3c(c2)OCCO3)n(-c2ccccc2)n1,Genome polyprotein NS2B-NS3 protease,reporter gene,HeLa,,EC50,18 µM
O=C1c2ccc3c4ccc5c6c(ccc(c7ccc(c2c37)C(=O)N1CCN1CCCCC1)c64)C(=O)N(CCN1CCCCC1)C5=O,hTERT promoter G-quadruplex DNA,"binding, thiazole orange displacement",,pH 6,DC50,420 ± 280 nM
O=C(NCc1ccncc1)c1cc(-c2ccccc2)n(-c2ccccc2)n1,Genome polyprotein NS2B-NS3 protease,reporter gene,HeLa,,EC50,34 µM
O=C(O)C(Cc1c[nH]cn1)N1C(=O)c2ccc3c4ccc5c6c(ccc(c7ccc(c2c37)C1=O)c64)C(=O)N(CCN1CCCCC1)C5=O (stereo not shown),hTERT promoter G-quadruplex DNA,"binding, thiazole orange displacement",,pH 6,DC50,480 ± 170 nM
CCOC(=O)[C@@](CC)(CCCSCCOCCOCCNC(=O)OC(C)(C)C)NC(=O)c1ccc(C2CC2)c(Cc2ccc(F)cc2)n1,CNR2,"cAMP, agonist",,,EC50,0.023 µM
NCc1cccc(CNC(=O)c2cc(-c3ccccc3)n(-c3ccccc3)n2)c1,Genome polyprotein NS2B-NS3 protease,reporter gene,HeLa,,EC50,30 µM
O=C(N1CCc2cccc([N+](=O)[O-])c21)n1ccnn1,"KAI2 (Arabidopsis thaliana, UniProt Q9SZU7)",isothermal titration calorimetry,,,Kd,709 µM and 667 µM and 758 µM
CCOC(=O)[C@@](CC)(CCCSCCOCCOCCN)NC(=O)c1ccc(C2CC2)c(Cc2ccc(F)cc2)n1,CNR2,"ligand displacement, radioligand",,cell membranes,Ki,4.6 nM
CC1CN(C(=O)Cn2ncc3cccn3c2=O)CC(C)O1 (stereo not shown),"VKORC1 (Homo sapiens, UniProt Q9BQB6)","carboxylation, inhibitor, ELISA",HEK293 stably expressing,"24 h, together with: vitamin K epoxide 5 µM",IC50,5.51 µM
CCOC(=O)C(CC)(CCCSCCOCCN)NC(=O)c1ccc(C2CC2)c(Cc2ccc(F)cc2)n1 (stereo not shown),CNR2,"ligand displacement, radioligand",,cell membranes,Ki,60 nM
Cc1cccc2c1N(C(=O)n1ccnn1)CC2,"KAI2 (Arabidopsis thaliana, UniProt Q9SZU7, L218I)",ITC,,"L218I mutant, mean",Kd,26.3 µM

# For quick reference, copied from above:
Compound,target,test,system,conditions,measurement,value
CCOC(=O)C(CC)(CCCOC)NC(=O)c1ccc(C2CC2)c(Cc2ccc(F)cc2)n1 (stereo not shown),CNR2,"ligand displacement, radioligand",,cell membranes,Ki,1.5 nM
O=C(O)C(Cc1c[nH]cn1)N1C(=O)c2ccc3c4ccc5c6c(ccc(c7ccc(c2c37)C1=O)c64)C(=O)N(C(Cc1c[nH]cn1)C(=O)O)C5=O (stereo not shown),hTERT promoter G-quadruplex DNA,"binding, thiazole orange displacement",,pH 7,DC50,> 2500 nM
